Measurements of several laboratories.
Lines come from different studies, so protocols differ. “And” joins repeats or separate records; there may be more than shown. ± marks the error that the study gave.

O=C1CCC(N2Cc3cc(C(=O)O)c(F)cc3C2=O)C(=O)N1 (stereo not shown)
plasma concentration (CD-1 mouse, male; oral, 10 mg/kg parent drug, 0.33 h): 174 ± 86.2 ng/mL

CC(C)n1ncc2c(C(=O)NC[C@@H](C)N)cc(C3CC3)nc21
plasma concentration (mouse BALB/c female, plasma; intraperitoneal, 30 mg/kg, 0.25 h): 1030 ng/mL and 1270 ng/mL and 1090 ng/mL and 1080 ng/mL

CC1(C)CC[C@@]2(CO)C(=C3C=C[C@@H]4[C@@]5(C)CC[C@H](O)[C@@](C)(CO)[C@@H]5CC[C@@]4(C)[C@]3(C)C[C@@H]2O)C1
plasma concentration (UHPLC-MS/MS; mouse, plasma; oral, 50 mg/kg of saikosaponin a, 24 h): 0 ng/mL

Cc1nn(-c2nc3c(F)cc(F)cc3s2)c(O)c1C(c1ccc(C(F)(F)F)cc1)c1c(C)nn(-c2nc3c(F)cc(F)cc3s2)c1O
plasma concentration (ICR mouse, plasma; oral, 50 mg/kg, 1.00 h, mean, one outlier excluded): 88400 ng/mL

Cc1ncsc1-c1ccc(CNC(=O)[C@@H]2C[C@@H](O)CN2C(=O)[C@@H](NC(=O)COCC(C)(COCCOCCOCCNC(=O)C[C@@H]2N=C(c3ccc(Cl)cc3)c3c(sc(C)c3C)-n3c(C)nnc32)COCCOCCOCCNC(=O)C[C@@H]2N=C(c3ccc(Cl)cc3)c3c(sc(C)c3C)-n3c(C)nnc32)C(C)(C)C)cc1
plasma concentration (C57BL/6 mouse, male, plasma; intravenous, 5 mg/kg, 15 min): 14700 ng/mL

O=C1C2CC3CC1CC(C(=O)N1CCN(c4ccc([N+](=O)[O-])c5ncccc45)CC1)(C3)C2
plasma concentration (ICR mouse, male; oral, 5 mg/kg, 0.25 h): 29.7 ng/mL

CC#CC(=O)N1CCC[C@H]1c1nc(-c2ccc(C(=O)Nc3ccccn3)cc2)c2c(N)nccn12
plasma concentration (mouse, TMD8 tumour-bearing, plasma; 7.5 mg/kg twice daily, 8 h): 2.5 ng/mL

[2H]C([2H])(N)C([2H])([2H])NC(=O)c1cc(C2CC2)nc2c1cnn2C(C)C
plasma concentration (mouse BALB/c female, plasma; intraperitoneal, 50 mg/kg, 0.5 h): 2170 ng/mL and 2570 ng/mL and 2840 ng/mL and 2200 ng/mL

Cc1ccc(OCC(=O)N(Cc2cccs2)c2ccn[nH]2)cc1
plasma concentration (mouse, CD-1, male, plasma; oral, 30 mg/kg, 2 h): 27 nM

C=CC(=O)N1CCCC(n2c(=O)c3ncccc3n(Cc3ccc(Oc4ccccc4)cc3)c2=O)C1 (stereo not shown)
plasma concentration (male BALB/c mouse, plasma; intraperitoneal, 200 mg/kg, 0.5 h): 93500 ng/mL

Repeated from above:
CC(C)n1ncc2c(C(=O)NC[C@@H](C)N)cc(C3CC3)nc21
plasma concentration (mouse BALB/c female, plasma; intraperitoneal, 30 mg/kg, 0.25 h): 1030 ng/mL and 1270 ng/mL and 1090 ng/mL and 1080 ng/mL
